{"data": "Assay results pooled from the literature", "cell line": "MOLM-13", "note": "Each line is one published result; not all experiments were run side by side."}
{"Compound": "CC[C@H](C)[C@@H]([C@@H](CC(=O)N1C[C@@H](N=[N+]=[N-])C[C@H]1[C@H](OC)[C@@H](C)C(=O)N[C@@H](Cc1ccccc1)C(=O)OC)OC)N(C)C(=O)[C@@H](NC(=O)[C@H](C(C)C)N(C)C)[C@H](C)N=[N+]=[N-]", "read-out": "cell growth or viability", "method": "resazurin", "measurement": "GI50", "value": "0.057 nM"}
{"Compound": "O=c1sn(Cc2ccccc2)c(=O)n1C1CC1", "read-out": "cell growth or viability", "time": "72 h", "measurement": "IC50", "value": "9500 nM"}
{"Compound": "CCNC(=O)Nc1ccc(S(=O)(=O)Oc2ccccc2CC)cc1", "read-out": "cell growth or viability", "method": "MTT", "time": "48 h", "measurement": "IC50", "value": "700 nM"}
{"Compound": "Cc1cc(CN2CCN(c3c(Br)cnc4[nH]c(-c5ccc(N6CCN(C)CC6)cc5)nc34)CC2)no1", "read-out": "cell growth or viability", "method": "MTS", "time": "72 h", "measurement": "IC50", "value": "23 nM"}
{"Compound": "COc1ccc(Nc2ccn3ncc(-c4ccc5c(c4)CN([C@H]4CCC(=O)NC4=O)C5=O)c3n2)cc1Cl", "read-out": "cell growth", "method": "CellTiter luminescence", "time": "72 h", "measurement": "IC50", "value": "> 100 nM"}
{"Compound": "CC1(C)CCN(Cc2ccc(C(=O)NC[C@]3(O)CCCN(c4cc(NCc5ccccc5)ncn4)C3)c(O)c2)CC1", "item": "m6A in mRNA", "tested at": "40 µM", "time": "1 to 16 h", "measurement": "half-life of m6A reduction", "value": "1.8 h"}
{"Compound": "Cc1nn2ccc(-c3ccc4c(c3)CN([C@H]3CCC(=O)NC3=O)C4=O)nc2c1Cl", "read-out": "cell growth", "method": "CellTiter luminescence", "time": "72 h", "measurement": "IC50", "value": "8 nM"}
{"Compound": "C/C(=N\\NC(=O)c1cccc(S(=O)(=O)N2CCOCC2)c1)c1cc(Cl)ccc1O", "read-out": "cell growth or viability", "method": "resazurin", "time": "96 h", "measurement": "EC50", "value": "203 nM"}
{"Compound": "O=C1CC[C@H](N2Cc3cc(-c4ccn5nccc5n4)ccc3C2=O)C(=O)N1", "read-out": "cell growth", "method": "CellTiter luminescence", "time": "72 h", "measurement": "IC50", "value": "> 100 nM"}
{"Compound": "CC[C@H](C)[C@H]1[C@H](OC)CC(=O)N2C[C@H](C[C@H]2[C@H](OC)[C@@H](C)C(=O)N[C@@H](Cc2ccccc2)C(=O)OC)NC(=O)CCCC(=O)N[C@@H](C)[C@H](NC(=O)[C@@H](NC)C(C)C)C(=O)N1C", "read-out": "cell growth or viability", "method": "resazurin", "measurement": "GI50", "value": "> 1000 nM"}
{"note": "A few entries again:"}
{"Compound": "Cc1cc(CN2CCN(c3c(Br)cnc4[nH]c(-c5ccc(N6CCN(C)CC6)cc5)nc34)CC2)no1", "read-out": "cell growth or viability", "method": "MTS", "time": "72 h", "measurement": "IC50", "value": "23 nM"}
